Measured values gathered from unrelated publications.
Each numbered part is a random draw from the data of one study; scales do not carry over between parts. Positions count from the first letter of the parent shown.

Sample 1
Target: ABI1, truncated, D143A, DHFR fusion (Arabidopsis thaliana, UniProt P49597)
Technique: DHFR PCA, dose-response
Matrix: yeast
Notes: Hill fit, mean, not affinity
Added: (+)-ABA, dose series
Direction: lower = more sensitive
Measurement: ABA EC50
Starting sequence: PYL1, truncated, DHFR fusion (Arabidopsis thaliana, UniProt Q8VZS8); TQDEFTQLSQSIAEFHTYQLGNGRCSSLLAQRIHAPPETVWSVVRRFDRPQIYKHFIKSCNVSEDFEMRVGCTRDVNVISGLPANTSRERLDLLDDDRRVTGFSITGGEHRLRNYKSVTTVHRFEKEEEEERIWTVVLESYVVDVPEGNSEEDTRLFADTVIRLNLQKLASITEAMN
R155Q: 6.87 µM
Q31T: 23.9 µM
G107A: 21.2 µM
V70A: 5.12 µM
M68P: 5.79 µM
Y115W: 70.1 µM
E109F: 62.5 µM
G71N: 34.6 µM
E139S: 13.8 µM
E151Y: 5.67 µM
E127N: 2.2 µM
T17Y: 27.2 µM
P36V: 26.1 µM
L8V: 9.93 µM
L29Q: 20.5 µM
E14I: 11.6 µM
E174P: 69.3 µM
D97R: 3.02 µM

Sample 2
Target: Sal-like protein 4, full length isoform B (SALL4, Homo sapiens, UniProt Q9UJQ4-2, residues 1-616)
Technique: universal PBM
Molecule type: double-stranded DNA, one strand shown
Matrix: in vitro
Tested at: not given
Notes: 8-mer, flanks averaged, mean of replicates
Direction: higher = stronger binding
Measurement: E-score
Construct (chain): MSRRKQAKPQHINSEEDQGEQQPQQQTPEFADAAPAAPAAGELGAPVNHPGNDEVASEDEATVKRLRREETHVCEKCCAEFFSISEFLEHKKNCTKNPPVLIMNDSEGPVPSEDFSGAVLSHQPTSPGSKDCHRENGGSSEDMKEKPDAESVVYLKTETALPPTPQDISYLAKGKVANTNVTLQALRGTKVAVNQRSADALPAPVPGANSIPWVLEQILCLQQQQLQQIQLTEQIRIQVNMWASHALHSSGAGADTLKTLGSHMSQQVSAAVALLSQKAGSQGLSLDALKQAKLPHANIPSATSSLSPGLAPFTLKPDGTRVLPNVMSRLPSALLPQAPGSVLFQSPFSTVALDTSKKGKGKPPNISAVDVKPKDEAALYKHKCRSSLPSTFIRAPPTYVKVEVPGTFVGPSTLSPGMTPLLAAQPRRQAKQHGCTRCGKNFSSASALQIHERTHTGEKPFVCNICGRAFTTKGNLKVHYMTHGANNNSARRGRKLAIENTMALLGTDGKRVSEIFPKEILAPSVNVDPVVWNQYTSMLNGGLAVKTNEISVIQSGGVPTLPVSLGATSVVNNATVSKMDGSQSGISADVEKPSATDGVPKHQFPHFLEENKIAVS
ATCCTGAA: 0.139
AAACTGTG: -0.0195
GGCCTAGA: -0.209
CACACCGG: -0.404
AACCGCCA: -0.204
CTTAAGGA: 0.0084
CTCCTTAA: 0.0138
GCGCACAC: -0.192
AGCCCTGA: -0.226
AAAATAGT: 0.253
AAAGTGAG: 0.0531
CGGGTGCA: -0.238
TATGGTCA: 0.191
ACTTGGCG: -0.144
GAGGTGCC: -0.241
CCGGGCAA: -0.265

Sample 3
Target: Prothrombin, mature alpha-thrombin (F2, Homo sapiens, UniProt P00734)
Technique: aptamer microarray, sandwich
Molecule type: DNA with 2'F-ANA
Matrix: in vitro
Tested at: 200 nM
Notes: whole 15-mer aptamer, many near background
Added: Cy3 exosite-II aptamer, 400 nM
Direction: higher = stronger binding
Measurement: mean fluorescence intensity
Strand: GGTTGGTGTGGTTGG
2'F-ANA at 1 2 7 9 10 11 14: 48.3 a.u.
2'F-ANA at 4 7 11 14: 96.9 a.u.
2'F-ANA at 1 2 4 5 6 7 9 10 11 13: 51.7 a.u.
2'F-ANA at 3 4 5 6 7 8 9 11 14: 174 a.u.
2'F-ANA at 2 3 6 9 10 12 14: 255 a.u.
2'F-ANA at 4 5 8 9 11: 60.3 a.u.
2'F-ANA at 1 13 14 15: 70 a.u.
2'F-ANA at 1 3 5 8 12: 164 a.u.
2'F-ANA at 1 2 4 7 9 13 15: 81.6 a.u.
2'F-ANA at 2 3 4 7 13: 582 a.u.
2'F-ANA at 5 6 8 10 11 12 15: 142 a.u.
2'F-ANA at 1 4 6 7 8 10 11 13 15: 52.8 a.u.
2'F-ANA at 1 3 7 8 13 14 15: 107 a.u.
2'F-ANA at 1 5 9 14 15: 61.8 a.u.
2'F-ANA at 4 6 7 9 10 11 12 13: 80.4 a.u.
2'F-ANA at 2 3 6 11: 623 a.u.
2'F-ANA at 2 4 6 7 8 9 10 15: 85.3 a.u.
2'F-ANA at 1 3 4 10 11 12 14 15: 56.1 a.u.
2'F-ANA at 4 5 6 8 10 15: 44 a.u.

Single results of other studies
PhoQ, residues 284 288 289 292 302 303 TVTVVA  fold induction (PhoP, residues 12 14 15 18 19 HEGLL (Escherichia coli, UniProt P23836); Sort-seq, item: YFP reporter; E. coli; PhoQ-PhoP variant library, added: 10 µM Mg2+; relative to: high Mg2+ state, higher = stronger signaling): 5.96

Excerpt of the above (sample 3):
2'F-ANA at 4 7 11 14: 96.9 a.u.
2'F-ANA at 1 2 4 5 6 7 9 10 11 13: 51.7 a.u.
2'F-ANA at 3 4 5 6 7 8 9 11 14: 174 a.u.
2'F-ANA at 2 3 6 9 10 12 14: 255 a.u.
